# Measurements gathered from unrelated publications.
# Numbered parts are unrelated; each lists some results of a single study.
# Sequence of UniProt P27448 (whole entry, looked up): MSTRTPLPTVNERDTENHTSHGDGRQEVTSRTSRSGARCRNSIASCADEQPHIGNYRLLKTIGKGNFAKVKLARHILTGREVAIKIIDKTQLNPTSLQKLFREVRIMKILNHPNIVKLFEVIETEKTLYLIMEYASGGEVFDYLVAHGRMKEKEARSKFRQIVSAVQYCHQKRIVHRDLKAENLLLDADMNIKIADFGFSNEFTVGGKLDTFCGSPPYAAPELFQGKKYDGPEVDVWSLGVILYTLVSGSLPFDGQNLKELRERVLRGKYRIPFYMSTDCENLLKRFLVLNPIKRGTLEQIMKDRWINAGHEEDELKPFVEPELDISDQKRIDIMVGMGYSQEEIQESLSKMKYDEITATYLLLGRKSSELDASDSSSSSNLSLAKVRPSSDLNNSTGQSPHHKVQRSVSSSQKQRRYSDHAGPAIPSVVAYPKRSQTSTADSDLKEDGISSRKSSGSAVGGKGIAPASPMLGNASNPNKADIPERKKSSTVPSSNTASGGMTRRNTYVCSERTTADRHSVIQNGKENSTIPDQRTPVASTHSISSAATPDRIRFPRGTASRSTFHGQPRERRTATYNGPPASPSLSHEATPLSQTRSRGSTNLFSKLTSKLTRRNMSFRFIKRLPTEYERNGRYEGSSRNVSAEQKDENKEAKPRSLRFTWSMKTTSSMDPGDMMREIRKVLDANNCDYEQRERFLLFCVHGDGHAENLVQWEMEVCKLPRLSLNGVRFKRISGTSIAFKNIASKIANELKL
# Sequence of UniProt Q16513 (whole entry, looked up): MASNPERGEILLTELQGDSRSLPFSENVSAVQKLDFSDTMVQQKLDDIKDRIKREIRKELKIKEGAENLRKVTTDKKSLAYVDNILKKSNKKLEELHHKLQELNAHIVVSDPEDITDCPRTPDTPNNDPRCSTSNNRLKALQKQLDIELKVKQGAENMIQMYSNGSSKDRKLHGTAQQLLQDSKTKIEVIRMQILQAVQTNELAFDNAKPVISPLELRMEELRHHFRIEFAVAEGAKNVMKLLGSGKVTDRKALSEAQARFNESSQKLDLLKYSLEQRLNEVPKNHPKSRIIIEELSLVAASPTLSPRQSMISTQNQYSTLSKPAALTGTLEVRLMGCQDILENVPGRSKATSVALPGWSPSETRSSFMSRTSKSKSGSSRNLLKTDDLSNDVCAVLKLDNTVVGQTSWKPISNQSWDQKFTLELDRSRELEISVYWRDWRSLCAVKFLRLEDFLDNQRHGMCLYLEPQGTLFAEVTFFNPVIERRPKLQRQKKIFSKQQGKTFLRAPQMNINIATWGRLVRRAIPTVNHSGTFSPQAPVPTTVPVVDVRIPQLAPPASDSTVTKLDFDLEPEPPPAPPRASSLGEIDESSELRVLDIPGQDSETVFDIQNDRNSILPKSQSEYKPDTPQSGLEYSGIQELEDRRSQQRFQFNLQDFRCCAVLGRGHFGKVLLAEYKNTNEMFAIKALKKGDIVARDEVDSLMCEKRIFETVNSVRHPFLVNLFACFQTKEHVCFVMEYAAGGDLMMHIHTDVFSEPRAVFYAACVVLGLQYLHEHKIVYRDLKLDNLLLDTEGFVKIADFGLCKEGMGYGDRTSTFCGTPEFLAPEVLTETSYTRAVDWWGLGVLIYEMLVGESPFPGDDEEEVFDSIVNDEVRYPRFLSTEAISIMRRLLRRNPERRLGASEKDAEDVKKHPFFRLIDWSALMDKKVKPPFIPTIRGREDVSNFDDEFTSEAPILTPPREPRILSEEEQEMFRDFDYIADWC
# Sequence of UniProt Q9UK32 (whole entry, looked up): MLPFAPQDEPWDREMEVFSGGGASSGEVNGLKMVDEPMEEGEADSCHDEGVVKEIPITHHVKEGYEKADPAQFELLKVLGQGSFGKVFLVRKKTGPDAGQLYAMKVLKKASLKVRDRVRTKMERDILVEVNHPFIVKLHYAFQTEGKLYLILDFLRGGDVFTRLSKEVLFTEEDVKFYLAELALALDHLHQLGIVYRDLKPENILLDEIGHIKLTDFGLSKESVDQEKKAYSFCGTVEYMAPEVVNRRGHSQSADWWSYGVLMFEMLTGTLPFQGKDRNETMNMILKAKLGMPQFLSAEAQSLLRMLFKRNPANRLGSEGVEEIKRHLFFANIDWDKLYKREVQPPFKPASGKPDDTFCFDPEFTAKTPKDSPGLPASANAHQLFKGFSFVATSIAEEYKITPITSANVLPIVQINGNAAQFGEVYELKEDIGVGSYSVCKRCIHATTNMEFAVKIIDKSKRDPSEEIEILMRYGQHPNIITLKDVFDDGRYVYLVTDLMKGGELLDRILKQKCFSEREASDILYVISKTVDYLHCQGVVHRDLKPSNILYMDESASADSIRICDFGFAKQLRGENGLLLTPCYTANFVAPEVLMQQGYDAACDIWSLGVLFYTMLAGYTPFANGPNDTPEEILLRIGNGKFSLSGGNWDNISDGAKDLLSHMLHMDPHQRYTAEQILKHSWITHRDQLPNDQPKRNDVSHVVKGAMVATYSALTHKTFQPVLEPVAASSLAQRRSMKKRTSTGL
# Sequence of UniProt P29597 (whole entry, looked up): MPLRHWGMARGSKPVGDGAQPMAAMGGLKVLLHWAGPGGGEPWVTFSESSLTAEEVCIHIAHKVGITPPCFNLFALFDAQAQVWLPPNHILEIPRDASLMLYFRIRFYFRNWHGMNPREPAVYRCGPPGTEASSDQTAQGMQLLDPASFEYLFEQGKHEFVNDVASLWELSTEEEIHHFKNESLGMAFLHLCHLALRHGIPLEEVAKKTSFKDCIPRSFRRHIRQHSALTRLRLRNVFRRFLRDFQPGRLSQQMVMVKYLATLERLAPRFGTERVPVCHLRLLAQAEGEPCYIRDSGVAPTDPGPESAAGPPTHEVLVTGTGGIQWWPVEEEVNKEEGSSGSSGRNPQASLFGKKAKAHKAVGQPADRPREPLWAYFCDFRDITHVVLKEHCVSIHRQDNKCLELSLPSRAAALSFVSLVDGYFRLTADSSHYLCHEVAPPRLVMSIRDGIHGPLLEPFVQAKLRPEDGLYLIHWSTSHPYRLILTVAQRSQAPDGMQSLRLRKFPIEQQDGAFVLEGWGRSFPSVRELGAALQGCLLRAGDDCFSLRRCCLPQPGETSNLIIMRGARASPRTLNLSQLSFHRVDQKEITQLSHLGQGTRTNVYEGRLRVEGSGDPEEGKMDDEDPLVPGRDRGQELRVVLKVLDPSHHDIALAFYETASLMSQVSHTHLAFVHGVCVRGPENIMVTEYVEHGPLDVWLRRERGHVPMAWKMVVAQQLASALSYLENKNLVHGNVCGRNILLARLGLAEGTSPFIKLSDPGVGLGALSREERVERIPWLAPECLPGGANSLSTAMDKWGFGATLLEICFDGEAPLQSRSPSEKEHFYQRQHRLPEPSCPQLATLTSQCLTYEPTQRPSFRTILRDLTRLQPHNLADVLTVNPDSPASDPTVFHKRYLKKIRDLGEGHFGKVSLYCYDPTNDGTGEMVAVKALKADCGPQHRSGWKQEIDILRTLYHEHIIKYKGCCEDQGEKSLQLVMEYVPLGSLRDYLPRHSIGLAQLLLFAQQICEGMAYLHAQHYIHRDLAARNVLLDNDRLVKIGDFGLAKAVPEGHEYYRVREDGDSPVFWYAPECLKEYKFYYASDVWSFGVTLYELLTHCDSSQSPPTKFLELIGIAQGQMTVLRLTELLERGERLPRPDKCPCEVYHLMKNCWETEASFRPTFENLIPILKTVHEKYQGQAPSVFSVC
# Sequence of UniProt Q9Y2U5 (whole entry, looked up): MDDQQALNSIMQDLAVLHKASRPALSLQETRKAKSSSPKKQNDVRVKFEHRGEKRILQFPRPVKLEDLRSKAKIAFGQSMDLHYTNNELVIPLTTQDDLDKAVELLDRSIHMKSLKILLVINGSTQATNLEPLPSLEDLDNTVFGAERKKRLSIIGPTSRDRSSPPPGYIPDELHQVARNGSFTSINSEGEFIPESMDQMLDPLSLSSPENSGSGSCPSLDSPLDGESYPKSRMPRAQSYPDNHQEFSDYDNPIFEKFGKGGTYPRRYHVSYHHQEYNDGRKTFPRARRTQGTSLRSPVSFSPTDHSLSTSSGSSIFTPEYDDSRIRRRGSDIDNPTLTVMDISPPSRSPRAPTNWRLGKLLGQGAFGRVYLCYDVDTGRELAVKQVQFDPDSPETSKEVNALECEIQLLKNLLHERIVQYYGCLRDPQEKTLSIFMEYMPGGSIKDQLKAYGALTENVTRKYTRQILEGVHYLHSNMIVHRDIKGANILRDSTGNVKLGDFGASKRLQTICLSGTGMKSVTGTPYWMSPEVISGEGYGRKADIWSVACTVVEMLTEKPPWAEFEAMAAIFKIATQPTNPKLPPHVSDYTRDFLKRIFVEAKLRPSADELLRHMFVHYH
# Sequence of UniProt Q9P289 (whole entry, looked up): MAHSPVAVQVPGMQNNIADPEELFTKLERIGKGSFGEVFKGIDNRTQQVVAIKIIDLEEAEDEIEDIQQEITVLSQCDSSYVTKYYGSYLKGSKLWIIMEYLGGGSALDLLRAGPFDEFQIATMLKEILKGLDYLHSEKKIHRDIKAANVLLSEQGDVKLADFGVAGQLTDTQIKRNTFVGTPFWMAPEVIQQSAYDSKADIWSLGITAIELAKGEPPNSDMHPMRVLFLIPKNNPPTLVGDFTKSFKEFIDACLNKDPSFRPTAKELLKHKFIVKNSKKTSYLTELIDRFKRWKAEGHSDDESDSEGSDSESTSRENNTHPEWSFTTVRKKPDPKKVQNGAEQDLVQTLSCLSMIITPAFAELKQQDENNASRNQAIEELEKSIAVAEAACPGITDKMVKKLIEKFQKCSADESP

# Block 1
# Target: RING finger protein unkempt homolog, zinc fingers 1-6, SBP tag (UNK, Homo sapiens, UniProt Q9C0B0, residues 30-357)
# Sequence of UniProt Q9C0B0 (30-357, looked up): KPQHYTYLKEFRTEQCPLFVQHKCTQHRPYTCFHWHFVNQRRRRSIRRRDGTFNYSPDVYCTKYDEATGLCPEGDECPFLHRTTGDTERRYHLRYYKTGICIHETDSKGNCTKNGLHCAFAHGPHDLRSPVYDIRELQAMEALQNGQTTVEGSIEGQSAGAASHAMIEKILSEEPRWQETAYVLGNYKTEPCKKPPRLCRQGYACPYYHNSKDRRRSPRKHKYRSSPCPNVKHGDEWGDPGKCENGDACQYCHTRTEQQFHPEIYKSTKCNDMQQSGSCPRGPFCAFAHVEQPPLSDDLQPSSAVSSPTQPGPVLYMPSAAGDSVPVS
# Method: RNA Bind-n-Seq
# Molecule type: RNA
# Medium: in vitro
# Concentration: 100 nM
# Setting: RNA with constant flanks, vertebrate orthologous sites, ends assumed
# Reference: input RNA pool
# Reading: higher = stronger binding
Oligonucleotide,bound/input enrichment [ratio]
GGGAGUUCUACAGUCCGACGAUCUGCAUUUUGCAUCUUGGAUGUGGUCUGCGCGAGGAAGCUGCUGGCCCCUCCACAACAACAAAUAAAACGUUUGUCAUUUUUUUAAGAUGUUAAAACGGAAUCGAAUUUACUAAAAAUGUACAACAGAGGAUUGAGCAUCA,0.169
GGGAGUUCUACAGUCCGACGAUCCCUACAAUAAUGAAAACCUACAGGAAUUUUUUUAUUUUUCAUUUUCCCCCUAGGUAUACUUAGUCUUUUUCCCCCCCAGGCAGAUCAUUCUGAGUGUGCGAGUGUGUGUGCACAUGUUACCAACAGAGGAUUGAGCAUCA,1.27
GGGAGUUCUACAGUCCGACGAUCUGAAAGUUACAGACAAGAGCCUGAAAGUAGAAAUACAGGAUCCUGGUUAUCGUCAUCUCUAAGAAAUAGAUGUACACCUCUGUUCUCCAGAAGAAGGCGAGAAGGAAGAGAUGAAUCUGCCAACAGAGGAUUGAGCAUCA,0.281
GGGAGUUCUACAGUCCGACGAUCAGCAACCCAAGGAUUCAGGACUGGUUUUACAAAUAUACCAAGCAGAUAUGGAACUAACAAUAGAAUUGGACAACCAAGACCAUGAUGUACUGUAAUUUAAUUUAUUUUUAUGAAGAAUAUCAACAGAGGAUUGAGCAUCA,0.721
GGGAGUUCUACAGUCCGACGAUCGUGAGGGUCUACUGACCACUCACUAUUAUGUCUGGUAUCUGUAAACACUCUCUUUGUUCUUAGUCUUUUUCUUGUAUAAUUGAUGUCCUUUAAAAUUGUUACUGUAUAACAGGGCUUAUACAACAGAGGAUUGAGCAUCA,1.27
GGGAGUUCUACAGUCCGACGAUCCUCUUUCCUAGGUUGGACCUAGUGGAAAAGUCAUAGGAAUUGAUCACAUUAAGGAGUUAGUGGACGACUCAAUAAAUAAUGUCAGAAAGGAUGACCCAAUGCUUUUGUCUUCAGGGAGAGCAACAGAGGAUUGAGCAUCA,0.531
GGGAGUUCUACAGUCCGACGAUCUAUGGGAAACCUCGCAGAGUUGAAAUAAUGGAAGAGGAAAGUGAAUAGUAAUCUUCAUUUUAGUAUUUAUGCUUAGAUGUGAAAAUAAAUGUUAUUUGUUGAUCAUUUCUAUAAUCCAGACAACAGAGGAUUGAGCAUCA,0.636
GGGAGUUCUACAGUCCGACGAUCAUUCAAACCUGUGGUGCCAUGGCCUCAUGUUGAAGGAAUAGAAGUGGACUUAGAGUCUAUUAGAAGAAAAAACAAAGCUAAAAAUGAACAAGAGCACCAUGCUGGAGGAGAUUCCCAGAACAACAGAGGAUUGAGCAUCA,0.599

# Block 2
# SMILES: CCS(=O)(=O)c1cc2cc(C[C@](O)(CC(C)(C)c3ccc(F)cc3C(N)=O)C(F)(F)F)[nH]c2cn1
# Observed: cell-free assay
# Method: competition with immobilised ligand
# Concentration: 1 µM
target,remaining binding
"PIK3CA (Homo sapiens, UniProt P42336, Q546K)",80%
"AKT3 (Homo sapiens, UniProt Q9Y243)",100%
"STK26 (Homo sapiens, UniProt Q9P289)",94%
"PLK4 (Homo sapiens, UniProt O00444)",80%
"Ribosomal protein S6 kinase alpha-5, N-terminal kinase domain (RPS6KA5, Homo sapiens, UniProt O75582)",94%
"TAOK3 (Homo sapiens, UniProt Q9H2K8)",86%
"CDK18 (Homo sapiens, UniProt Q07002)",100%
"Tyrosine-protein kinase ABL1, phosphorylated (ABL1, Homo sapiens, UniProt P00519, H396P)",89%
"CAMK2B (Homo sapiens, UniProt Q13554)",97%
"RPS6KB1 (Homo sapiens, UniProt P23443)",82%
"Ribosomal protein S6 kinase alpha-3, N-terminal kinase domain (RPS6KA3, Homo sapiens, UniProt P51812)",100%
"Non-receptor tyrosine-protein kinase TYK2, JH1 (TYK2, Homo sapiens, UniProt P29597)",100%
"DDR2 (Homo sapiens, UniProt Q16832)",88%
"PTK6 (Homo sapiens, UniProt Q13882)",100%
"CHEK2 (Homo sapiens, UniProt O96017)",92%
"Ribosomal protein S6 kinase alpha-6, N-terminal kinase domain (RPS6KA6, Homo sapiens, UniProt Q9UK32)",82%
"PKN2 (Homo sapiens, UniProt Q16513)",100%
"MAP2K5 (Homo sapiens, UniProt Q13163)",100%
"CHUK (Homo sapiens, UniProt O15111)",100%
"MAP3K2 (Homo sapiens, UniProt Q9Y2U5)",100%

# Block 3
# SMILES: CCC(=O)Nc1ccc2ncnc(Nc3cccc(Br)c3)c2c1
# Observed: enzyme activity
# Action: inhibitor
# Concentration: 0.5 µM
# Reference: control
target,remaining activity [%]
"MARK3 (Homo sapiens, UniProt P27448)",86.1
"FGR (Homo sapiens, UniProt P09769)",93.2
"ALK (Homo sapiens, UniProt Q9UM73)",83.1
"MATK (Homo sapiens, UniProt P42679)",93.4

# Block 4
# Target: Interferon regulatory factor 5, full length, phosphomimetic (IRF5, Homo sapiens, UniProt Q13568-2, residues 1-514, K96S/S451D/S453D/S456D/S462D)
# Method: protein-binding microarray
# Molecule type: double-stranded DNA, one strand shown
# Medium: in vitro
# Concentration: 250 nM
# Setting: 60-bp whole probe
# With: salmon DNA 0.4 mg/ml
# Reference: random background probes
# Reading: higher = stronger binding
# All sequences stand within: GCCTAGCAC … GTCTTGATTCGCTTGACGCTGCTG
Oligonucleotide,log fluorescence [z-score]
TTCCAATTCTTTTTATGCTTGTGCTAG,1.47
TTAGGTAGCCTTTTCCTTTAGTGCTAG,-0.0819
TCAGGTTCCCATTCCAGACTGTGCTAG,-0.112
GACGGTTTCGACACTCGGGACGTGCTA,4.9
GATGAACTGAGTATCGAGACGTGCTAG,1.93
AGGGTCTTCAGGTTCTCCCCGTGCTAG,-0.536
TTAGGTTTCGGGACTGGGGTAGTGCTA,5.96
TTAGGTCTCCTTATCCTCTAGTGCTAG,-0.0638

# Other studies, line by line
SMILES,system,setting,measurement,value
CC(C)n1cnc(-c2ccc(F)cc2)c1-c1ncc(C(=O)Nc2ccc(N3CCN(C)CC3)cc2)[nH]1,IPF patients,"30 mg once daily, adverse event",Cholecystitis incidence,0%
